Published values of several laboratories.
A part holds a random share of what one study measured.
Chain of UniProt P10721 (whole entry, unmodified, looked up): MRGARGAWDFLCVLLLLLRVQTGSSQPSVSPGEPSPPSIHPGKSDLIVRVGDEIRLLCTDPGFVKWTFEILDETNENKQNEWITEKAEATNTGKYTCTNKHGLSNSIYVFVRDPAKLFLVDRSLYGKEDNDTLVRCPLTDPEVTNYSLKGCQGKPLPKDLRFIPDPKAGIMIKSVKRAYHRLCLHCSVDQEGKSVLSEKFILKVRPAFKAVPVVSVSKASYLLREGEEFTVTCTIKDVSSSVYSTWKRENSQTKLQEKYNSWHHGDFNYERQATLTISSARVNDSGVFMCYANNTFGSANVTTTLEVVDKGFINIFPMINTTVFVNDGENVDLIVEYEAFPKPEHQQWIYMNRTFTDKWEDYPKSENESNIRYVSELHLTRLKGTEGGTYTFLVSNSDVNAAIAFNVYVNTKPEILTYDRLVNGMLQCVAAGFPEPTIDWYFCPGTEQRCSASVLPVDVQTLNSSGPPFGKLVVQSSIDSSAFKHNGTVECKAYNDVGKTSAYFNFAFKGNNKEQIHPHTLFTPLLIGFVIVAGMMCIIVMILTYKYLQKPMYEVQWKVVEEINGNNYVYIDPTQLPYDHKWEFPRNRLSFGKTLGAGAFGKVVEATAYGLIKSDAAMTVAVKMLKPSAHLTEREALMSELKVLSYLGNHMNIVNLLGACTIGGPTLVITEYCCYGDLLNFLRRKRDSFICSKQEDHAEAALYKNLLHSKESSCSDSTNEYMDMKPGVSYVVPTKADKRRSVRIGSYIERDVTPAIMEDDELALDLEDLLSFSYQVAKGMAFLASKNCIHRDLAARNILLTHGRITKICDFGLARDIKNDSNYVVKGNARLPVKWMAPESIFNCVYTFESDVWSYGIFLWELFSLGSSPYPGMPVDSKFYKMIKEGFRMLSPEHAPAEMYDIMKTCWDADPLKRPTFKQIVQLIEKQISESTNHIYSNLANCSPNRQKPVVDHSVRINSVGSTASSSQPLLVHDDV
Chain of UniProt Q96SB4 (whole entry, looked up): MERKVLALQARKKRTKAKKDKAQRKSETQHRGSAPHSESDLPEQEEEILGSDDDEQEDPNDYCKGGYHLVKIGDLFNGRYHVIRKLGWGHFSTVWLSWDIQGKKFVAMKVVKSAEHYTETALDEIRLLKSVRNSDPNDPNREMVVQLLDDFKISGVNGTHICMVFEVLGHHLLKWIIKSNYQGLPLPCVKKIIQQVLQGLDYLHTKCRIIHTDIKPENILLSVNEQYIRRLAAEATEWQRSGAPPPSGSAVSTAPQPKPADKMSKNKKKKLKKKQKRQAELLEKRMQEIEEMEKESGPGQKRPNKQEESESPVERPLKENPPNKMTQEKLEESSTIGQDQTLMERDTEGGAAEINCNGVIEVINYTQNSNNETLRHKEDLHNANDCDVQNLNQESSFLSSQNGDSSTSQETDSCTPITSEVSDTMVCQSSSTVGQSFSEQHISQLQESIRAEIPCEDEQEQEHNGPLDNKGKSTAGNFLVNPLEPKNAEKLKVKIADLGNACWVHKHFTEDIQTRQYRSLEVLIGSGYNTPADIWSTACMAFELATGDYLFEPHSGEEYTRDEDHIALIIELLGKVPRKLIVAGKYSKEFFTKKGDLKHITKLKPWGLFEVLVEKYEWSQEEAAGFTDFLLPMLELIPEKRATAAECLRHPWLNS
Chain of UniProt O60285 (whole entry, looked up): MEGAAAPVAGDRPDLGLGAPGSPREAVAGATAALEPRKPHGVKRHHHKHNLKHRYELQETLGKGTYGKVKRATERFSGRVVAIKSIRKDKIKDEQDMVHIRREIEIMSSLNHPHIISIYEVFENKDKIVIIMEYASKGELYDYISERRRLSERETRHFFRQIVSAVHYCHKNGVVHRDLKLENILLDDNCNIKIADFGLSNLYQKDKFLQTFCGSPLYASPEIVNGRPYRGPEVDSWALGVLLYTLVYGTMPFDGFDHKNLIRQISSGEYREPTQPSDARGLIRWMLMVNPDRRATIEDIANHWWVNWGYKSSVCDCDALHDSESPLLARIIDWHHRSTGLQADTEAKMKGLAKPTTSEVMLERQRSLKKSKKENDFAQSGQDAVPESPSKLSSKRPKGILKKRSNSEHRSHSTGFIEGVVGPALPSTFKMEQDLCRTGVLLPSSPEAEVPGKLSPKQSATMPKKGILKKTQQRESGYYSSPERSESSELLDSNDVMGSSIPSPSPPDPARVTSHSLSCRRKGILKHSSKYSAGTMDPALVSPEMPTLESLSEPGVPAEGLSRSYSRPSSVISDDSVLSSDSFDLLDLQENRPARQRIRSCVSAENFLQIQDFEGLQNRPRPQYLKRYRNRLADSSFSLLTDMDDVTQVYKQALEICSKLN
Chain of UniProt Q9H093 (whole entry, looked up): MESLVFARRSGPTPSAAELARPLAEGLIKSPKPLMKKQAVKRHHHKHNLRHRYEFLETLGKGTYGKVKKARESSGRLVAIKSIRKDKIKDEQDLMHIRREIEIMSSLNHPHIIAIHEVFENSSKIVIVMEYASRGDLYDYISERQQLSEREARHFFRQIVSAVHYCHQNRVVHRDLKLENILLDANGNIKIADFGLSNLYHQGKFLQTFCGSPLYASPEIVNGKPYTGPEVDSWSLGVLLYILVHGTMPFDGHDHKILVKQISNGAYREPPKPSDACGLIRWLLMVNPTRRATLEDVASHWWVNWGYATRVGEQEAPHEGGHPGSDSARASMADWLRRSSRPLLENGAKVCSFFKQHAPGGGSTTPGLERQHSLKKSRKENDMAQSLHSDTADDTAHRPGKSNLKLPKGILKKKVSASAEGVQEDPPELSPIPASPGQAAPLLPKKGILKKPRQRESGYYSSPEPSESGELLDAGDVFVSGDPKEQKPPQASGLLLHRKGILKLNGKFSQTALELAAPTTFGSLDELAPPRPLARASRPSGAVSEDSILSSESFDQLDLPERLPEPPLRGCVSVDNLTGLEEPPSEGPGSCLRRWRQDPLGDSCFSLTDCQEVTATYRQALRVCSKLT

Block 1 — observed: enzyme activity; mode: inhibitor; tested at: 0.5 µM; reference: control
Target: Fibroblast growth factor receptor 4 (FGFR4, Homo sapiens, UniProt P22455)
Chain of UniProt P22455 (whole entry, looked up): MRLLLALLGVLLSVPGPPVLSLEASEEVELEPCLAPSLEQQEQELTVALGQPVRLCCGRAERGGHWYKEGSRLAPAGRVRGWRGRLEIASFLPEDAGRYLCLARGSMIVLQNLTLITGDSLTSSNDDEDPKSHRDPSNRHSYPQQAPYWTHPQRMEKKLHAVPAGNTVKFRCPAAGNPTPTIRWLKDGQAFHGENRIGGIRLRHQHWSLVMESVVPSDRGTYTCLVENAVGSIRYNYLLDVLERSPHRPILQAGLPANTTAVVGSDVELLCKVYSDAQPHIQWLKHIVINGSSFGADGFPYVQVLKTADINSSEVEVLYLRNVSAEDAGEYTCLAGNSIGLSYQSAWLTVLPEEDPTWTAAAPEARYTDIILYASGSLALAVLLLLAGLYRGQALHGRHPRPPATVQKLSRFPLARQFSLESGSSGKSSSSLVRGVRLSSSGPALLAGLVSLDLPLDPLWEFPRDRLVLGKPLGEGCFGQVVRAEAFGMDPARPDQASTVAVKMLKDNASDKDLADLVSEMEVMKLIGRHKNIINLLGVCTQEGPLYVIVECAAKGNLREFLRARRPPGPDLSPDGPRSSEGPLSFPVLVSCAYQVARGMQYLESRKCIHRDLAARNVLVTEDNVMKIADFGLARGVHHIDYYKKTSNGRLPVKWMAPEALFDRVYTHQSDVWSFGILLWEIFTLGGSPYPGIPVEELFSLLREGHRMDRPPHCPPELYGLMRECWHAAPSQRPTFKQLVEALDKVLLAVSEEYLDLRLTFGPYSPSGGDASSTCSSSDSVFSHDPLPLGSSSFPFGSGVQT
| SMILES | remaining activity |
| --- | --- |
| O=C1c2ccccc2-c2n[nH]c3cccc1c23 | 99.6% |
| Cn1nc2c3c(cccc31)C(=O)c1ccccc1-2 | 108% |
| N#Cc1c(NC(=O)c2cccc3ccccc23)sc2c1CCCC2 | 109% |
| CCN(CC)CCNC(=O)c1c(C)[nH]c(/C=C2\C(=O)Nc3ccc(F)cc32)c1C | 92.5% |
| O=C(NC(NC(=S)Nc1ccc(F)c([N+](=O)[O-])c1)C(Cl)(Cl)Cl)C(c1ccccc1)c1ccccc1 (centres unmarked) | 100% |
| COc1cc2ncnc(Nc3cccc(Cl)c3)c2cc1OC | 78.7% |
| COc1cc2ncnc(Nc3ccc(O)c(Br)c3)c2cc1OC | 103% |
| O=C(Nc1cccc(Nc2nccc(Nc3cccc(C(F)(F)F)c3)n2)c1)C1CC1 | 101% |
| Ic1cccc(CSc2nnc(-c3ccncc3)o2)c1 | 97.2% |
| CCN(CC)CCNC(=O)c1c(C)[nH]c(/C=C2\C(=O)Nc3ccc(Cl)cc32)c1C | 70.5% |
| O=C1C(Cl)=C(N2C(=O)CCC2=O)C(=O)c2ccccc21 | 105% |
| Cc1cn(-c2cc(NC(=O)c3ccc(C)c(Nc4nccc(-c5cccnc5)n4)c3)cc(C(F)(F)F)c2)cn1 | 99.4% |

Block 2 — technique: aptamer microarray, sandwich; form: DNA with 2'F-ANA; sample: in vitro; tested at: 200 nM; together with: Cy3 exosite-II aptamer, 400 nM; direction: higher = stronger binding; strand: GGTTGGTGTGGTTGG
Target: Prothrombin, mature alpha-thrombin (F2, Homo sapiens, UniProt P00734)
Notes: whole 15-mer aptamer, many near background
| Modification | mean fluorescence intensity [a.u.] |
| --- | --- |
| 2'F-ANA at 1 4 5 13 15 | 50.3 |
| 2'F-ANA at 3 4 5 6 7 9 12 13 14 15 | 51.5 |
| 2'F-ANA at 4 5 7 8 9 10 11 13 14 15 | 44.3 |
| 2'F-ANA at 1 3 4 7 | 234 |
| 2'F-ANA at 6 9 11 12 | 645 |
| 2'F-ANA at 2 4 5 9 10 11 12 13 14 15 | 43.5 |
| 2'F-ANA at 1 2 3 9 10 12 14 15 | 60.5 |
| 2'F-ANA at 3 7 8 9 10 11 14 15 | 405 |

Block 3 — observed: cell-free assay; technique: competition with immobilised ligand; tested at: 0.1 µM
Structure (SMILES): CCOC(=O)c1cc2cc(-c3cc(C(=O)NCc4ccc(C(=O)O)cc4)nn3C)ccc2[nH]1
| target | remaining binding |
| --- | --- |
| SRPK1 (Homo sapiens, UniProt Q96SB4) | 75% |
| KIT (Homo sapiens, UniProt P10721, V559D/V654A) | 100% |
| NUAK1 (Homo sapiens, UniProt O60285) | 100% |
| NUAK2 (Homo sapiens, UniProt Q9H093) | 85% |

Further values, each from its own experiment — technique: SELEX-seq; form: double-stranded DNA, one strand shown; sample: in vitro; tested at: not given; notes: 7-bp core, flanks averaged; reference: best-binding core; direction: lower = stronger binding
Target: Forkhead transcription factor HCM1, DNA-binding domain (HCM1, Saccharomyces cerevisiae, UniProt P25364, residues 41-213)
One construct used (chain): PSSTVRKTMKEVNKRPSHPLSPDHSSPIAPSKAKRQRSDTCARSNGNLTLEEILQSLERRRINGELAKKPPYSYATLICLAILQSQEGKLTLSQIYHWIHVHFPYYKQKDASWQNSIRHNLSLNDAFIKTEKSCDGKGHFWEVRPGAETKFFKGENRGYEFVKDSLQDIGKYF
| Strand | relative binding free energy |
| --- | --- |
| ATATACA | 1.31 ddG/RT |
| AATAATA | 2.07 ddG/RT |

For quick reference, copied from above (block 2):
| Modification | mean fluorescence intensity [a.u.] |
| --- | --- |
| 2'F-ANA at 3 7 8 9 10 11 14 15 | 405 |
| 2'F-ANA at 1 3 4 7 | 234 |
| 2'F-ANA at 4 5 7 8 9 10 11 13 14 15 | 44.3 |
| 2'F-ANA at 6 9 11 12 | 645 |
